# Measured values gathered from unrelated publications.
# Protocols differ between the studies behind these lines. ± gives the spread as reported.
SMILES,organism,test,system,conditions,scale,quantity,result
CC(=O)N1CCC(C(=O)N2CCN3C(=O)c4cc(-c5ccccc5)ccc4NC(=O)C3C2)CC1 (centres unmarked),Salmonella typhimurium,,TA1537,50 µg/plate,,revertants per plate,14
CN(N=O)c1ccc(F)cc1,Salmonella typhimurium,"mutagenicity, Ames plate incorporation",TA1535,"500 µg/plate, 3 d, without S9, methanol",,revertant colonies per plate,16 ± 3
OC(CCN1CC=C(c2ccc(F)cc2)CC1)c1ccc(F)c2ccccc12 (centres unmarked),Salmonella typhimurium,"genotoxicity, SOS/umu test",TA1535/pSK1002,"0.25 mg/mL, 4 h, without S9, lower range",,induction factor,0.2
COc1cccc(-c2n[nH]c(SCc3ccccn3)n2)c1OC,Salmonella typhimurium,"Ames test, preincubation",TA1535,"0.13 mg/plate, without S9",,revertant colonies per plate,15
Cc1cc(C(=O)NC(C)(C)COc2cccc3c2C(N)=NS(=O)(=O)N3)cc(C)n1,Salmonella typhimurium,"Ames test, confirmatory",TA1537,5000 µg/plate,baseline: solvent control,revertant ratio,0.5
CC(C)N(N=O)C(C)C,Salmonella typhimurium,"mutagenicity, Ames plate incorporation",TA98,"5000 µg/plate, without S9, methanol",,revertant colonies per plate,37.3 ± 6
O=C(/C=C/c1ccc(O)c(O)c1)O[C@@H]1C[C@](O)(C(=O)O)C[C@@H](O)[C@H]1O,human coronavirus OC43,virus-induced cell killing,MRC-5,screen,,maximum inhibition,12.7%
CN(CC(C)(C)C)N=O,Salmonella typhimurium,"mutagenicity, Ames plate incorporation",TA98,"150 µg/plate, without S9, methanol",,revertant colonies per plate,22.3 ± 7
O=[N+]([O-])c1ccc(N2CCN(CCC(O)c3ccc(F)cc3)CC2)c(C(F)(F)F)c1 (centres unmarked),Salmonella typhimurium,SOS/umu test,TA1535/pSK1002,"0.001 mg/mL, 4 h, with S9, lower range",,survival,98.2%
CNC(=O)c1c(N(C)N=O)ncn1C,Salmonella typhimurium,"mutagenicity, Ames plate incorporation",TA1535,"2500 µg/plate, without S9, methanol",,revertant colonies per plate,21.7 ± 6
O=[N+]([O-])c1ccc(N2CCC(NCCC(O)c3ccc(F)c4ccccc34)CC2)c(C(F)(F)F)c1 (centres unmarked),Salmonella typhimurium,"genotoxicity, SOS/umu test",TA1535/pSK1002,"0.002 mg/mL, 4 h, with S9, full range",,induction factor,1.89
Cc1ccc([N+](=O)[O-])cc1S(=O)(=O)N(C)/N=C/c1cnc2ccc(Br)cn12,human coronavirus OC43,virus-induced cell killing,MRC-5,maximum over 10 doses,,maximum inhibition,0%
O=[N+]([O-])c1ccc(NC2CCNCC2)c(C(F)(F)F)c1,Salmonella typhimurium,"genotoxicity, SOS/umu test",TA1535/pSK1002,"0.125 mg/mL, 4 h, with S9, full range",,induction factor,0.7
N#C[C@@]1(n2ccc(N)nc2=O)O[C@H](CO)[C@@H](O)[C@H]1O,Salmonella typhimurium,,TA98,"5 µM, without S9",,viability,97%

# Repeated from above:
SMILES,organism,test,system,conditions,scale,quantity,result
CC(C)N(N=O)C(C)C,Salmonella typhimurium,"mutagenicity, Ames plate incorporation",TA98,"5000 µg/plate, without S9, methanol",,revertant colonies per plate,37.3 ± 6
